Measured values of several laboratories.
Each line is one published result; not all experiments were run side by side. “And” joins repeats or separate records; there may be more than shown. Numbers after ± are the reported error. In brackets after ≈: the same amount, converted by molar mass.
UniProt Q71U36, sequence (whole entry, looked up): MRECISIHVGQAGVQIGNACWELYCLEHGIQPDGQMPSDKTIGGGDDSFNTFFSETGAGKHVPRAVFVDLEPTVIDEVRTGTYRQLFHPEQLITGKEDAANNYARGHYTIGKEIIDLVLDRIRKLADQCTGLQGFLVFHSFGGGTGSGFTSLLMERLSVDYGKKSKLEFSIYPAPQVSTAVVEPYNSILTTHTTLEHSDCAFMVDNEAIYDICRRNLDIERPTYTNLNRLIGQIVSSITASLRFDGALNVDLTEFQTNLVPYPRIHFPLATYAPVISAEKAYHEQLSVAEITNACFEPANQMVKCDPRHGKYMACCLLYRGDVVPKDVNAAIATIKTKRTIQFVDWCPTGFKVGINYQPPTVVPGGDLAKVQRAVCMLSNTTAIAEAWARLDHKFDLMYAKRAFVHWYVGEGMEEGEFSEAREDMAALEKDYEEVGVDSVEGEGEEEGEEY
UniProt Q15464, sequence (whole entry, looked up): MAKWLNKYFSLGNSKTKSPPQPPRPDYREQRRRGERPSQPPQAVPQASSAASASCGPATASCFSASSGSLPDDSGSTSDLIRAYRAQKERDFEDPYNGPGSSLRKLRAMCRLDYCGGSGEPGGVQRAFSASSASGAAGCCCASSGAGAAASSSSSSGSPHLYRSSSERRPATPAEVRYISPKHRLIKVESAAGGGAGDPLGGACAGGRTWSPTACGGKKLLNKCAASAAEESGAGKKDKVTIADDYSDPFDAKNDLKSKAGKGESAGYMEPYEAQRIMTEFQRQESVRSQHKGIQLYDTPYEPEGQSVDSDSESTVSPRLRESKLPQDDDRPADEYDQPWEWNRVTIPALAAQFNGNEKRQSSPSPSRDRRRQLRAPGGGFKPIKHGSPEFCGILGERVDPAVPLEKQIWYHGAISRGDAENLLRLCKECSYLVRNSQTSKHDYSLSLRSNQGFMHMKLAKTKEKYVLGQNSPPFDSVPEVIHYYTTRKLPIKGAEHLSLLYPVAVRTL
UniProt P80192, sequence (whole entry, looked up): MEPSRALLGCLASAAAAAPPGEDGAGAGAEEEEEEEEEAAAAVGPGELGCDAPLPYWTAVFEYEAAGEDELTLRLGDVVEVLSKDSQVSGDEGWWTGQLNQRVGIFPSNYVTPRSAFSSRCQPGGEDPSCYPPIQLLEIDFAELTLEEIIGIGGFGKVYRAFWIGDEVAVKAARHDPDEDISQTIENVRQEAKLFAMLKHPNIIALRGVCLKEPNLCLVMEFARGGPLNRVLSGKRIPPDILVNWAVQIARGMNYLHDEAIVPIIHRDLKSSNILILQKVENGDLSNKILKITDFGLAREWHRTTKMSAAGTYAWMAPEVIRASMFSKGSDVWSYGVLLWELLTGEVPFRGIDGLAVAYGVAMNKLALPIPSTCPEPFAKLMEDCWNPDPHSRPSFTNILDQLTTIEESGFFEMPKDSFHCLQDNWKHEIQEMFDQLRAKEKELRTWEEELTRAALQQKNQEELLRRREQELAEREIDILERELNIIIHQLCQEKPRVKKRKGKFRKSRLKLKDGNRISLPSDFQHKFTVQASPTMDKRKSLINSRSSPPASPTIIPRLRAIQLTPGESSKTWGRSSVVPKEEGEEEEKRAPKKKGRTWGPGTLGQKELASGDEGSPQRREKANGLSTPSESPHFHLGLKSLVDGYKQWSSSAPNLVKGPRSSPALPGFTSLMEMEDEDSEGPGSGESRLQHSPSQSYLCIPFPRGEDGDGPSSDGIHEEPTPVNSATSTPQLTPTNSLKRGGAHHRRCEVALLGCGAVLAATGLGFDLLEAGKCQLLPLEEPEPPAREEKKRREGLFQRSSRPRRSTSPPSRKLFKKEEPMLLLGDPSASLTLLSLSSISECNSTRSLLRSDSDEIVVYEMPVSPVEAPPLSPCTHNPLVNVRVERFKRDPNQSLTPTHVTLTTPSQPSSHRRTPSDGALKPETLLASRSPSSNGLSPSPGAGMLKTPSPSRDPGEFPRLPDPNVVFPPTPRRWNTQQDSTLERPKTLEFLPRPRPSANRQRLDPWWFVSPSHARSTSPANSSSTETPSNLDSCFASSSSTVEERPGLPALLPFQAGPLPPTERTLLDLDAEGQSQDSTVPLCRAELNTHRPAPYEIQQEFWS
UniProt O43613, sequence (whole entry, looked up): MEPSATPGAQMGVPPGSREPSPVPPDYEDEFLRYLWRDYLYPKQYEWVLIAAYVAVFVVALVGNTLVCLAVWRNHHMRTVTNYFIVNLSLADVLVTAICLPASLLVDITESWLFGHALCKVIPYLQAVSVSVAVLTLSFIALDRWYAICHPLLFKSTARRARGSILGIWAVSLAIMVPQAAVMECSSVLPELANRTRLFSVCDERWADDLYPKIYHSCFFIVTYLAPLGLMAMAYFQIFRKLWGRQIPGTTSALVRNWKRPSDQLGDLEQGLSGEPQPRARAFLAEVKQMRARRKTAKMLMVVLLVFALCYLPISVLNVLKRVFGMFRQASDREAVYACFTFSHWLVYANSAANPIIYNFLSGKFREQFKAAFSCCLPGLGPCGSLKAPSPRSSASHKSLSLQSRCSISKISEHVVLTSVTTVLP
UniProt P51878, sequence (whole entry, looked up): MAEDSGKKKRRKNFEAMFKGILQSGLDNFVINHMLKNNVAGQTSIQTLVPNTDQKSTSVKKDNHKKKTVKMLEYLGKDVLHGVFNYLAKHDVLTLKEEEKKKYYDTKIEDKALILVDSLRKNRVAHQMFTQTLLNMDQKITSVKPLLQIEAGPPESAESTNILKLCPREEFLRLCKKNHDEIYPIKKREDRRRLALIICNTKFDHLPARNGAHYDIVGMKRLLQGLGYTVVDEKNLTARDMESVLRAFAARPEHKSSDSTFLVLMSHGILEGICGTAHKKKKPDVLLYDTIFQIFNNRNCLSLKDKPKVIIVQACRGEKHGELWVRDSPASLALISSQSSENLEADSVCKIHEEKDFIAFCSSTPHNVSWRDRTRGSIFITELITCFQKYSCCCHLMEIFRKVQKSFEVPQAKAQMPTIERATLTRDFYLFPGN

SMILES	tested on	assay	system	setting	scale	endpoint	result
CN1CCN(c2cc(-c3ccncc3)c(-c3ccc4ccccc4c3)nn2)CC1	HCRTR1 (Homo sapiens, UniProt O43613)	antagonist, FLIPR		10 µM		inhibition	-28.8%
CCSc1nc2ccccc2n1Cc1nnc(-c2ccc(OC)c(OC)c2)o1		relaxation, calcium antagonist	isolated rabbit jejunum	together with: 80 mM K+ contraction		EC50	0.34 ± 0.05 µg/mL (≈ 0.858 µM)
CC[C@H](C)[C@H](NC(=O)[C@H](Cc1ccccc1)NC(=O)[C@H](CCC(=O)O)NC(=O)[C@H](CCCNC(=N)N)NC(=O)[C@H](C)NC(=O)[C@H](C)NC(=O)[C@H](CCC(N)=O)NC(=O)[C@H](CCC(=O)O)NC(=O)[C@H](CCC(=O)O)NC(=O)[C@H](CC(C)C)NC(=O)[C@H](Cc1ccc(O)cc1)NC(=O)[C@H](CO)NC(=O)[C@H](CO)NC(=O)[C@@H](NC(=O)[C@H](CC(=O)O)NC(=O)[C@H](CO)NC(=O)[C@@H](NC(=O)[C@H](Cc1ccccc1)NC(=O)[C@@H](NC(=O)CNC(=O)[C@H](CCC(=O)O)NC(=O)[C@H](C)NC(=O)CCc1c[nH]cn1)[C@@H](C)O)[C@@H](C)O)C(C)C)C(=O)N[C@@H](C)C(=O)N[C@@H](Cc1c[nH]c2ccccc12)C(=O)N[C@@H](CC(C)C)C(=O)N[C@H](C(=O)N[C@@H](CCCNC(=N)N)C(=O)NCC(=O)N[C@@H](CCCNC(=N)N)C(=O)N[C@@H](CCCCNC(=O)COCCOCCNC(=O)COCCOCCNC(=O)CC[C@H](NC(=O)CCCCCCCCCCCCCCCCC(=O)O)C(=O)O)C(=O)NCC(=O)NCC(=O)N[C@@H](CO)C(=O)N[C@@H](CCCCNc1c(NCCCCCN(O)C(=O)CCC(=O)NCCCCCN(O)C(=O)CCC(=O)NCCCCCN(O)C(C)=O)c(=O)c1=O)C(=O)O)C(C)C [zirconium-89 labelled]			rat, muscle	iv, 3 nmol/kg, 24 h, ex vivo		tissue uptake	0.07 %ID/g
COc1ccc(N2C(=O)N(c3c(C)cccc3Cl)Cc3cnc(Nc4ccc(C5CCN(C)CC5)cc4OC)nc32)nc1	MAP3K9 (Homo sapiens, UniProt P80192)	kinase activity, inhibitor		0.5 µM, MLK1		inhibition	27%
Clc1cc2c(cc1Cl)Oc1cc(Cl)c(Cl)cc1O2		RNA-Seq, refers to: Dpep1	female Sprague-Dawley rat, liver	dose not given	relative to: vehicle	mRNA level	3.3 fold
C[C@H]1CN(c2n[nH]c3nc(N[C@H]4CC[C@H](NS(=O)(=O)CCC(F)(F)F)CC4)ncc23)CCO1	Tubulin alpha-1A chain (Homo sapiens, UniProt Q71U36)	Kinobeads competition, refers to: TUBA1A		20 µM, unit not given	relative to: vehicle	remaining binding	1.09
C=CC[C@@H]1c2ccc(OC)c(OC)c2CN2CCc3cc4c(cc3[C@H]12)OCO4			P2rx7 A312V/A312V mouse, S. aureus wound infection	dose not given, day 0	relative to: day 0	relative wound size	1
CSCC[C@@H]1NC(=O)[C@H](Cc2c[nH]c3ccccc23)NC(=O)[C@@H](NC(=O)CCNC(=O)[C@H](CCC(N)=O)NC(=O)[C@@H]2CCCN2C(=O)[C@@H]2CCCN2C(=O)[C@H](CCCNC(=N)N)NC(=O)[C@H](CCCNC(=N)N)NC(=O)[C@H](CCCNC(=N)N)NC(=O)[C@H](CCC(N)=O)NC(=O)[C@H](CCCNC(=N)N)NC(=O)[C@H](CCCNC(=N)N)NC(=O)[C@H](CCCCN)NC(=O)[C@H](CCCCN)NC(=O)[C@H](CCCNC(=N)N)NC(=O)CN)CSSC[C@@H](C(=O)O)NC(=O)[C@H]([C@@H](C)O)NC(=O)CNC(=O)[C@H](CC(C)C)NC(=O)[C@H](Cc2c[nH]cn2)NC(=O)[C@H](CCCNC(=N)N)NC(=O)[C@@H]2CCCN2C(=O)[C@H](CO)NC1=O		immunohistochemistry, refers to: CSNK2A2	NCI-H226 xenograft mouse, tumour tissue	intravenous, 2 mg/kg, day 16		CK2α' staining	0.08 IOD/area
C[C@@H](O)[C@@H](CO)NC(=O)[C@@H](CCCNC(=N)N)NC(=O)[C@@H]1CCCN1C(=O)[C@@H]1CSSC[C@H](NC(=O)[C@H](Cc2ccccc2)NC(=O)CN2CCN(CC(=O)O)CCN(CC(=O)O)CCN(CC(=O)O)CC2)C(=O)N[C@@H](Cc2ccc(O)cc2)C(=O)N[C@@H](Cc2ccccc2)C(=O)N[C@@H](CCC(N)=O)C(=O)N[C@@H](CC(N)=O)C(=O)N1 [gallium-68 labelled]			Wistar rat, bone	intravenous, 8 MBq, 30 min, group mean		tissue uptake	0.12 %ID/g
CCSc1nc2ccccc2n1Cc1nnc(-c2ccc(F)cc2)o1		relaxation, calcium antagonist	isolated rabbit jejunum	together with: 80 mM K+ contraction		EC50	0.88 ± 0.03 µg/mL (≈ 2.48 µM)
C=CCNc1c(O)cc2c(O)c1C[C@@H](C)C[C@H](OC)[C@H](O)[C@@H](C)/C=C(\C)[C@H](OC(N)=O)[C@@H](OC)/C=C\C=C(/C)C(=O)N2		18F-FDG PET EORTC criteria	human GIST	dose not given		metabolic partial response rate	38%
CSCC[C@H](NC(=O)CNC(=O)[C@H](Cc1ccccc1)NC(=O)[C@H](CC(=O)O)NC(=O)CNC(=O)c1ccc2c(c1)C(=O)OC21c2ccc(N(C)C)cc2Oc2cc(N(C)C)ccc21)C(=O)N[C@@H](CO)C(=O)N[C@@H](CCCNC(=N)N)C(=O)N[C@@H](CC(=O)O)C(=O)N[C@H](C(=O)N[C@@H](Cc1ccc(OP(=O)(O)O)cc1)C(=O)N[C@@H](CO)C(=O)N[C@H](C(=O)N[C@@H](CC(=O)O)C(=O)N[C@@H](Cc1ccc(O)cc1)C(=O)N[C@@H](Cc1ccc(O)cc1)C(=O)N[C@@H](CCCNC(=N)N)C(=O)N[C@H](C(=O)N[C@@H](CC(=O)O)C(=O)O)C(C)C)[C@@H](C)O)C(C)C	SH2 domain-containing adapter protein B, SH2 domain (SHB, Homo sapiens, UniProt Q15464)	binding				Kd	1820 nM
CC(C)C1CCC(N2CCC(N3C(=O)C(=O)c4ccccc43)CC2)CC1 (stereo not shown)			conscious Sprague-Dawley rat	intravenous bolus, 100 nmol/kg		mean arterial pressure change	decreased
CCSc1nc2ccccc2n1Cc1nnc(-c2cc(OC)c(OC)c(OC)c2)o1		relaxation, calcium antagonist	isolated rabbit jejunum	together with: 80 mM K+ contraction		EC50	0.45 ± 0.05 µg/mL (≈ 1.06 µM)
CCOCc1nc(O)c(-c2nnc(Cc3ccc(Cl)cn3)o2)c(O)c1-c1c(OC)cccc1OC			renal hypertensive rat	sc infusion, 0.192 mg/kg/day, repeat dosing	relative to: vehicle	stroke volume change	39%
COc1cc(CCC[P+](c2ccccc2)(c2ccccc2)c2ccccc2)c(OC)c2c1OCO2.[I-]	MCF7	SRB				TGI	-4.89 log M
C[C@H]1O[C@@H](O[C@H]2CC[C@@]3(C)[C@@H](CC[C@]4(C)[C@@H]3C=C[C@]35OC[C@@]6(CCC(C)(C)C[C@H]63)[C@@H](O)C[C@]54C)[C@]2(C)CO)[C@H](O)[C@@H](O[C@@H]2O[C@H](CO)[C@@H](O)[C@H](O)[C@H]2O)[C@H]1O			Mus musculus, chronic-plus-binge ethanol-fed, AAV8-TBG-Null vector, serum	oral, high dose, 5 h		triglycerides	1.01 mM and 0.563 mM and 0.622 mM and 0.763 mM and 0.905 mM and 1.07 mM

SMILES	tested on	assay	system	setting	scale	endpoint	result
CCSc1nc2ccccc2n1Cc1nnc(-c2ccc(C)o2)o1		relaxation	isolated rabbit jejunum	spontaneous contractions		EC50	0.26 ± 0.01 µg/mL (≈ 0.764 µM)
CCCCC1CNC2CCc3ccc(OC)cc3C12.Cl (racemic)		RNA sequencing	SAMP8 mice, hippocampus	intracerebroventricular, 1.0 µg/µL, 24 h	relative to: vehicle	upregulated genes count	239
CCCCC1(CCCC)CN(c2ccccc2)c2cc(SC)c(OCC(=O)N[C@@H](C(=O)NCC(=O)O)c3ccccc3)cc2S(=O)(=O)C1		refers to: HDL cholesterol	human, serum	2.5 mg once daily, day 13		serum HDL-C	52.1 mg/dL
Cc1cn(-c2cc(NC(=O)c3ccc(C)c(Nc4nccc(-c5cccnc5)n4)c3)cc(C(F)(F)F)c2)cn1			human patients	dose not given, 12 to 6 months, unit not given	relative to: placebo	ADAS-Cog maze errors change	0
CN1CCN(S(=O)(=O)c2cc([N+](=O)[O-])ccc2N(CCOS(C)(=O)=O)CCOS(C)(=O)=O)CC1			NSG mice, sample BI PDX	intraperitoneal, 25 mg/kg weekly x3	relative to: vehicle	EFS delay (T-C)	34.9 days
C[C@]1(CO)Cc2ncn(-c3ccc(C#N)c(Cl)c3)c2C(=O)O1		aldosterone synthesis, inhibitor, refers to: sodium	healthy Japanese adults, urine	80 mg, 0-24 h at steady state, multiple rising dose		urinary excretion	126 mmol
Cc1nc(Nc2ccc(CC(=O)O)cc2)nc(Nc2ccc(F)c(C(F)(F)F)c2)c1C			C57BL/6J mouse, high-fat diet MASH model	intraperitoneal, 0.3 mg/kg daily, 60% fat diet for 12 weeks, dosed final four weeks	relative to: untreated	gonadal white adipose weight	decreased
CNC(=O)c1c(C)oc2cc(Oc3ccnc4cc(OCCN5CCOCC5)ccc34)ccc12		DCE-MRI Ktrans	patients	dose not given, all doses		vascular responders	50%
C[C@@H](O)[C@H](NC(=O)[C@@H]1CSSC[C@H](NC(=O)[C@@H](Cc2ccccc2)NC(=O)CN2CCN(CC(=O)[O-])CCN(CC(=O)[O-])CCN(CC(=O)[O-])CC2)C(=O)N[C@@H](Cc2ccc(O)cc2)C(=O)N[C@H](Cc2c[nH]c3ccccc23)C(=O)N[C@@H](CCCCN)C(=O)N[C@@H]([C@@H](C)O)C(=O)N1)C(=O)O.[177Lu+3]	MEC1 treated with 50 µM zebularine	gamma counter	serum-free RPMI	120 min, 37 °C		uptake	2.02%
COc1ncc(-c2nc3c(n2C(C)C)[C@H](c2ccc(Cl)cc2)N(c2cc(Cl)cn(C)c2=O)C3=O)c(OC)n1		antileukemic activity, refers to: treatment failure, resistant disease	human, acute myeloid leukaemia	350 to 400 mg, high-dose, other doses		best overall response	50%
CC[C@H](C)[C@@H]1NC(=O)[C@@H]2CCCN2C(=O)[C@H](CC(C)C)NC(=O)[C@H](CC(C)C)NC(=O)CNC(=O)[C@@H](NC(=O)[C@@H](NC(=O)[C@H](CC(=O)O)NC(=O)CNC(=O)[C@@H](NC(=O)[C@H](C)NC(=O)CNC(=O)[C@H](CCCCN)NC(=O)[C@H](CC(C)C)NC(=O)[C@H](CC(C)C)NC(=O)[C@H](CCCCN)NC(=O)CNC(=O)[C@@H](NC(=O)[C@@H](N)CC(C)C)C(C)C)C(C)C)C(C)C)CSSC[C@@H](C(=O)O)NC1=O		RNA-seq, refers to: Ihh mRNA	mouse traumatic brain injury, frontal cortex and hippocampus	dose not given	relative to: TBI plus compound vs TBI	log2 fold change	-2.31
COc1c(CCC[P+](c2ccccc2)(c2ccccc2)c2ccccc2)cc2c(c1OC)OCO2.[I-]	CCRF-CEM	SRB				Log10GI50	-5.77 log M
COc1ccc(-n2nc(C(C)=O)s/c2=N\N=C(/C)c2ccc(NC(C)=O)cc2)cc1	WI-38			5 µM		toxicity	96%
[131I-].[Na+]		ATA response criteria	human, papillary thyroid cancer, nodal metastases	3700 MBq		structural incomplete response	6.9%
Cc1c(C)c2c(c(C)c1O)CCC(C)(C(=O)O)O2 (stereo not shown)		Cu2+ reduction, CUPRAC		30 µg/mL		absorbance	0.224 ± 0.052
COc1cc(Nc2ncc(F)c(Nc3ccc4c(n3)NC(=O)C(C)(C)O4)n2)cc(OC)c1OC	Caspase-5 (CASP5, Homo sapiens, UniProt P51878)					IC50	> 10000 nM
O=C1N(Cc2ccccc2Cl)c2ccccc2C12NN=C(c1ccccc1)S2 (stereo not shown)			WSU-FSCCL xenograft, mouse	intravenous, 923.8 mg/kg total		log cell kill	0

Repeated from above:
SMILES	tested on	assay	system	setting	scale	endpoint	result
C[C@H]1O[C@@H](O[C@H]2CC[C@@]3(C)[C@@H](CC[C@]4(C)[C@@H]3C=C[C@]35OC[C@@]6(CCC(C)(C)C[C@H]63)[C@@H](O)C[C@]54C)[C@]2(C)CO)[C@H](O)[C@@H](O[C@@H]2O[C@H](CO)[C@@H](O)[C@H](O)[C@H]2O)[C@H]1O			Mus musculus, chronic-plus-binge ethanol-fed, AAV8-TBG-Null vector, serum	oral, high dose, 5 h		triglycerides	1.01 mM and 0.563 mM and 0.622 mM and 0.763 mM and 0.905 mM and 1.07 mM
CCOCc1nc(O)c(-c2nnc(Cc3ccc(Cl)cn3)o2)c(O)c1-c1c(OC)cccc1OC			renal hypertensive rat	sc infusion, 0.192 mg/kg/day, repeat dosing	relative to: vehicle	stroke volume change	39%
COc1cc(Nc2ncc(F)c(Nc3ccc4c(n3)NC(=O)C(C)(C)O4)n2)cc(OC)c1OC	Caspase-5 (CASP5, Homo sapiens, UniProt P51878)					IC50	> 10000 nM
COc1ccc(-n2nc(C(C)=O)s/c2=N\N=C(/C)c2ccc(NC(C)=O)cc2)cc1	WI-38			5 µM		toxicity	96%
O=C1N(Cc2ccccc2Cl)c2ccccc2C12NN=C(c1ccccc1)S2 (stereo not shown)			WSU-FSCCL xenograft, mouse	intravenous, 923.8 mg/kg total		log cell kill	0
